Experimental data from different studies.
Numbers after ± are the reported error.

SMILES = CC[C@H](C)[C@H](NC(=O)C[C@H](NC(=O)CN1CCN2CCN(CC1)CC(=O)[O][Al]([18F])[O]C(=O)C2)C(=O)O)C(=O)N[C@H]1CCc2cccc3c2N(C1=O)[C@H](C(=O)NCc1cn[nH]n1)C3; test system = C57BL/6J mice, MC-38 tumour, anti-PD-1 treated, kidney; setting = 0.5 h; tissue uptake = 4.3 ± 0.98 %ID/g
SMILES = CCCC[C@H](NC(=O)CNC(=O)CNC(=O)[C@H](CCCCNC(=O)[C@H](CC(=O)O)NC(=O)C(C)c1ccc(CC(C)C)cc1)NC(=O)CN1CCN(CC(=O)O)CCN(CC(=O)O)CCN(CC(=O)O)CC1)C(=O)N[C@H]1CC(=O)NCCCC[C@@H](C(N)=O)NC(=O)[C@H](Cc2c[nH]c3ccccc23)NC(=O)[C@H](CCCNC(=N)N)NC(=O)[C@@H](Cc2ccccc2)NC(=O)[C@H](Cc2c[nH]cn2)NC1=O (stereo partly drawn) [lutetium-177 labelled]; test system = C57 mice, tumour-bearing, liver; setting = 2 h; tissue uptake = 2.56 ± 0.27 %ID/g
SMILES = Cc1nc(N)nc2c1C(=O)N[C@@H](c1ccc(F)cc1-c1cccc(OCC[18F])n1)C2; test = ex vivo biodistribution; test system = C57BL/6 mice, kidneys; setting = intravenous, 1 MBq, 30 min; tissue uptake = 3.33 ± 0.2 %ID
SMILES = CC(C)c1noc(C2CCN(c3ncnc(Nc4ccc(OCC[18F])cc4)c3[N+](=O)[O-])CC2)n1; test = ex vivo biodistribution after PET; test system = C57BL/J male mice, blood; setting = 60 min; tissue uptake = 1.08 ± 0.02 %ID/g
SMILES = COc1ccc(Nc2nc(Nc3ccc(OCCOCC[18F])cc3)ncc2Br)cc1; test system = ICR mice, S180 tumour-bearing, kidney; setting = intravenous, 370 kBq, 15 min; tissue uptake = 5.62 ± 0.27 %ID/g
SMILES = O=C(NCC1OC2CCC=CCCC2O1)c1ccc([18F])nc1 (stereo not drawn); test system = healthy female BALB/c nude mice, muscle; setting = intravenous, 7.4 MBq per mouse, 2 min; tissue uptake = 1.9 ± 0.3 %ID/g
SMILES = CC(=O)N([O-])CCCCCNC(=O)CCC(=O)N([O-])CCCCCNC(=O)CCC(=O)N([O-])CCCCCN.[89Zr+4]; test = gamma counting; test system = healthy Balb/c mice, adrenal; setting = intravenous, 1 h, 89Zr-labelled complex; tissue uptake = 1.03 ± 0.41 %ID/g
SMILES = O=C(NCC1OC2CCC=CCCC2O1)c1ccc(COCCOCCOCC[18F])cc1 (stereo not drawn); test system = healthy female BALB/c nude mice, muscle; setting = intravenous, 7.4 MBq per mouse, 120 min; tissue uptake = 1.2 ± 0.1 %ID/g
SMILES = Cc1cc(C)n(CCN(CCN)CCCCCCNC(=O)[C@@H](N)Cc2c[nH]cn2)n1.[99Tc+].[C-]#[O+].[C-]#[O+].[C-]#[O+]; test system = BALB/c nude mice MCF7 xenograft, tumor; setting = intravenous, 15 min; tissue uptake = 0.35 ± 0.03 %ID/g
SMILES = COc1ccc(Nc2nc(Nc3ccc(OCCOCCOCC[18F])cc3)ncc2Br)cc1; test system = ICR mice, S180 tumour-bearing, spleen; setting = intravenous, 370 kBq, 120 min; tissue uptake = 0.98 ± 0.07 %ID/g
SMILES = COc1ccc2c(c1)C(C)(C)C(/C=C/C1=C(Oc3ccc(C(=O)NCCCCOc4cc(CN(Cc5ccccn5)Cc5ccccn5)cc(CN(Cc5ccccn5)Cc5ccccn5)c4)cc3)C(=C/C=C3/N(CCCCS(=O)(=O)[O-])c4ccc(OC)cc4C3(C)C)CCC1)=[N+]2CCCCS(=O)(=O)[O-].O=[N+]([O-])[O-].O=[N+]([O-])[O-].[99Tc+].[C-]#[O+].[C-]#[O+].[C-]#[O+].[Zn+2]; test system = healthy BALB/c mice, small intestine with contents; setting = 12 h; tissue uptake = 1.99 %ID/g
SMILES = CN(O)C(=O)CCC(=O)NCCCN(CCCCN(CCCNC(=O)CCC(=O)N(C)O)C(=O)CCC(=O)N(C)O)C(=O)CCC(=O)N(C)O.[89Zr]; test = gamma counting; test system = healthy Balb/c mice, adrenal; setting = intravenous, 1 h, 89Zr-labelled complex; tissue uptake = 0.54 ± 0.21 %ID/g

A few entries again:
SMILES = COc1ccc(Nc2nc(Nc3ccc(OCCOCCOCC[18F])cc3)ncc2Br)cc1; test system = ICR mice, S180 tumour-bearing, spleen; setting = intravenous, 370 kBq, 120 min; tissue uptake = 0.98 ± 0.07 %ID/g
SMILES = CC(=O)N([O-])CCCCCNC(=O)CCC(=O)N([O-])CCCCCNC(=O)CCC(=O)N([O-])CCCCCN.[89Zr+4]; test = gamma counting; test system = healthy Balb/c mice, adrenal; setting = intravenous, 1 h, 89Zr-labelled complex; tissue uptake = 1.03 ± 0.41 %ID/g
